{"data": "Measurements collected from several papers", "note": "Each line is one published result; not all experiments were run side by side.", "chain of UniProt P29597 (whole entry, looked up)": "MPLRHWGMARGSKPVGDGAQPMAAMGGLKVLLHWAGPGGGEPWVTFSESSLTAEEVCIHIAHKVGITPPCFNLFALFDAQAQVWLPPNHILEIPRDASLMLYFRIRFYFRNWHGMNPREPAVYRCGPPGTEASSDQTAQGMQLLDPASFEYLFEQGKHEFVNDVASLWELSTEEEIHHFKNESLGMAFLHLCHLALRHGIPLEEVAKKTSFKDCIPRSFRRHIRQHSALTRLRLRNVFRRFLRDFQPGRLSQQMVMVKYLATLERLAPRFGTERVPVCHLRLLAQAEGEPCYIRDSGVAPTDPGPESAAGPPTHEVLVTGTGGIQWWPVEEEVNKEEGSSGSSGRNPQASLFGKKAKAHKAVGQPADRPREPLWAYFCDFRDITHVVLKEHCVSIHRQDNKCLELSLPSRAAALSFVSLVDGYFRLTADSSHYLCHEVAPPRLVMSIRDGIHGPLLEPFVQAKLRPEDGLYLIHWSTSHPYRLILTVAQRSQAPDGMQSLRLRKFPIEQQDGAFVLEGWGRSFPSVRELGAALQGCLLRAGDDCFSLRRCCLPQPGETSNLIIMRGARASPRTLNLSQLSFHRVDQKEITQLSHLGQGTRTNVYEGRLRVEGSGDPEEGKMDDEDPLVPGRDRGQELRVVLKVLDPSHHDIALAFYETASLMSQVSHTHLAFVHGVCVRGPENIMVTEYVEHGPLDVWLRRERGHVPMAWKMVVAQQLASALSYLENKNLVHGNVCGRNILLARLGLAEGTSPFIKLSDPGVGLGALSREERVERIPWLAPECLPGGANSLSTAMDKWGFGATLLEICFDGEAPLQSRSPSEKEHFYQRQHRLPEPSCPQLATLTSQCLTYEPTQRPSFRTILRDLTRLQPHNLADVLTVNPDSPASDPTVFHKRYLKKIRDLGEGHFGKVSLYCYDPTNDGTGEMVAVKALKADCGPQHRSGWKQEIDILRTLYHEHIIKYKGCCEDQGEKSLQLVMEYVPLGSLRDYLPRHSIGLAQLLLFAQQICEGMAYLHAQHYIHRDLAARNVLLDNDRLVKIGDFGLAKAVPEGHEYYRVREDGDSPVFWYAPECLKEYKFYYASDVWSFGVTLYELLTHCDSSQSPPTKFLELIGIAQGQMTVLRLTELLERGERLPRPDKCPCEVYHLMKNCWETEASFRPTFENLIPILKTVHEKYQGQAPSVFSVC", "chain of UniProt P53671 (whole entry, looked up)": "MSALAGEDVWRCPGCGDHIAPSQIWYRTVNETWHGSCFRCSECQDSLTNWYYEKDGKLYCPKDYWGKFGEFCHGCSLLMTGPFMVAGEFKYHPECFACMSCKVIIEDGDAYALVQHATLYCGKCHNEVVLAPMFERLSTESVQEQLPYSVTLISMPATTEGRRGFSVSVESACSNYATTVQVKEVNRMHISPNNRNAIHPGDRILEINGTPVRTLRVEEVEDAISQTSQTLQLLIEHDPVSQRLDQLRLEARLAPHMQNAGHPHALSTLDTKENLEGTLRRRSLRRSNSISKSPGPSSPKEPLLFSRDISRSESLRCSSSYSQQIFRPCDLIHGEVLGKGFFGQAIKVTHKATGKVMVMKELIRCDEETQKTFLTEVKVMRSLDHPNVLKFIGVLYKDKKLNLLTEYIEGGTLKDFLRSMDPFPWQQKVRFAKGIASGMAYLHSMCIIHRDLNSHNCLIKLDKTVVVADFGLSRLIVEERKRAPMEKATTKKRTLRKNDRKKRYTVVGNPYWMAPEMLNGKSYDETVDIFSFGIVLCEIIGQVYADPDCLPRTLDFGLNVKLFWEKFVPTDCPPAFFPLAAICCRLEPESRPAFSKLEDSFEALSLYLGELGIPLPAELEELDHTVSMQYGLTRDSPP", "chain of UniProt P19784 (whole entry, looked up)": "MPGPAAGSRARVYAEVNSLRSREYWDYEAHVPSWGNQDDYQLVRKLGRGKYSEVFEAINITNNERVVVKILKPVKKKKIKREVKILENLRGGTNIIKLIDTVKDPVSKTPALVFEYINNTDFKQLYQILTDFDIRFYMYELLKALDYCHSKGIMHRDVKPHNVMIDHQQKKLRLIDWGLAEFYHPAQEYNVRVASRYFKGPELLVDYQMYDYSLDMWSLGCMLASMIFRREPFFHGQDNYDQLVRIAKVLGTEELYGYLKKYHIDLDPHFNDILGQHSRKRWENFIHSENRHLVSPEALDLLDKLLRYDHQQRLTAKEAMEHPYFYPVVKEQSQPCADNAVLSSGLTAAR", "chain of UniProt Q9H0K1 (whole entry, looked up)": "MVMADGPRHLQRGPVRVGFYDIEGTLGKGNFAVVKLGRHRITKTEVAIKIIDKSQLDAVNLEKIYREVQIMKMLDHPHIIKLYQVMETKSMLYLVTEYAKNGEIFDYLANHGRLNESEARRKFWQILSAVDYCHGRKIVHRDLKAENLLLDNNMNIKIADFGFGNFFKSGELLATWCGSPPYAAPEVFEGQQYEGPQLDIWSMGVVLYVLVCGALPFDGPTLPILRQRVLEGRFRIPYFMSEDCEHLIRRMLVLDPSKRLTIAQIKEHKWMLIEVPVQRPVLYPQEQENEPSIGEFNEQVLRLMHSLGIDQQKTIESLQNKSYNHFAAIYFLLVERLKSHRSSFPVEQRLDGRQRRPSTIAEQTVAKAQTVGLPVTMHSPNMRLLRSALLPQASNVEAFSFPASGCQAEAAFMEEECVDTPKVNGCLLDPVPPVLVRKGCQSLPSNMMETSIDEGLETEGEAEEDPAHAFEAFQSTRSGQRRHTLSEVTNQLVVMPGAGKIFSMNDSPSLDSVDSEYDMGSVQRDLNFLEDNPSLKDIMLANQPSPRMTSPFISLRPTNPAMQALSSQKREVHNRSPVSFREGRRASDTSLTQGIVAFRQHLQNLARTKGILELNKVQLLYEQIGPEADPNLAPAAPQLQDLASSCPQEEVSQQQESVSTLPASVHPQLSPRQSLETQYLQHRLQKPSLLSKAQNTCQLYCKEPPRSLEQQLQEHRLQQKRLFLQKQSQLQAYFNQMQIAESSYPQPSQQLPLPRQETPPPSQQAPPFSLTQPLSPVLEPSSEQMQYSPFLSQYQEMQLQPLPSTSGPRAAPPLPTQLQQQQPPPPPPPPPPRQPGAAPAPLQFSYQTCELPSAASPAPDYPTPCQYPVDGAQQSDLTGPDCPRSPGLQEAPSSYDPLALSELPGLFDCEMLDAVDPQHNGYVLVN"}
{"SMILES": "C#Cc1ccc(O)c(C=NNC(=O)c2ccc(OC(F)(F)F)cc2F)c1", "tested on": "Cryptococcus neoformans", "assay": "microbial growth, broth dilution", "setting": "pH 7.4", "endpoint": "MIC80", "result": "4 µg/mL"}
{"SMILES": "COC(=O)c1cc(-c2cccc(NC(=O)Nc3cccc(Cl)c3Cl)c2)on1", "tested on": "Klebsiella pneumoniae", "assay": "microbial growth, broth dilution", "test system": "BAA1705", "endpoint": "MIC", "result": "> 64 µg/mL"}
{"SMILES": "CN(C)C(=O)c1sc2nc(-c3ccccc3)ccc2c1N", "tested on": "Mycobacterium tuberculosis", "assay": "microbial growth", "test system": "H37RV", "endpoint": "IC50", "result": "> 100000 nM"}
{"SMILES": "COC(=O)c1cc(-c2cccc(NC(=S)Nc3ccc(F)c(Cl)c3)c2)on1", "tested on": "Klebsiella pneumoniae", "assay": "microbial growth, broth dilution", "test system": "BAA1705", "endpoint": "MIC", "result": "> 64 µg/mL"}
{"SMILES": "COc1ncccc1-c1cnn2ccc(N3CCN(C(=O)OC(C)C)CC3)nc12", "tested on": "LIM domain kinase 2 (LIMK2, Homo sapiens, UniProt P53671)", "assay": "binding, competition with immobilised ligand", "setting": "1 µM", "endpoint": "remaining binding", "result": "94%"}
{"SMILES": "[2H]c1c([2H])c([C@]2([2H])CCCN2C(=O)C(C)(C)Oc2ccc3cn[nH]c3c2)c([2H])c([2H])c1C([2H])([2H])[2H]", "tested on": "Serine/threonine-protein kinase SIK2 (SIK2, Homo sapiens, UniProt Q9H0K1)", "assay": "binding, competition with immobilised ligand", "setting": "1 µM", "endpoint": "remaining binding", "result": "97%"}
{"SMILES": "O=C(NNc1ccc(F)c(F)c1)c1nnc(C23CC4CC(CC(C4)C2)C3)o1", "tested on": "Rhizoctonia solani", "assay": "microbial growth", "endpoint": "EC50", "result": "> 50 µg/mL"}
{"SMILES": "C#Cc1cccc(C=NNC(=O)c2ccc(Br)cc2Br)c1O", "tested on": "Candida albicans", "assay": "microbial growth", "setting": "pH 7.4", "endpoint": "MIC80", "result": "16 µg/mL"}
{"SMILES": "Nc1c(C(=O)N2CCOCC2)sc2nc(-c3ccc(F)cc3)ccc12", "tested on": "Mycobacterium tuberculosis", "assay": "microbial growth", "test system": "H37RV", "endpoint": "IC50", "result": "34000 nM"}
{"SMILES": "O=C(c1ccc(Cl)cc1)N1CCCC(C(=O)N(Cc2nnc(-c3ccccc3Cl)o2)C2CC2)C1 (stereo not shown)", "tested on": "Plasmodium falciparum", "assay": "parasite growth, SYBR Green", "test system": "3D7", "setting": "72 h", "endpoint": "EC50", "result": "198 nM"}
{"SMILES": "CC(C)(C)c1ccc(C=Nc2ccc(SCc3cc(=O)c(O)co3)cc2)cc1", "assay": "DPPH scavenging, absorbance", "setting": "30 min", "endpoint": "IC50", "result": "30600 nM"}
{"SMILES": "Nc1ncc(-c2nc(N3CCOCC3)nc(N3CCOCC3)n2)c(C(F)F)n1", "tested on": "Non-receptor tyrosine-protein kinase TYK2, JH1 (TYK2, Homo sapiens, UniProt P29597)", "assay": "binding, competition with immobilised ligand", "setting": "10 µM", "endpoint": "remaining binding", "result": "56%"}
{"SMILES": "Cc1cc(OC(C)C(=O)N2CCc3ccccc32)ccc1Cl (stereo not shown)", "tested on": "Plasmodium falciparum", "assay": "parasite growth, SYBR Green", "test system": "3D7", "setting": "72 h", "endpoint": "EC50", "result": "1410 nM"}
{"SMILES": "C#Cc1cccc(C=NNC(=O)c2ccc(Br)cc2)c1O", "tested on": "Cryptococcus neoformans", "assay": "microbial killing", "endpoint": "MFC", "result": "0.4 µg/mL"}
{"SMILES": "COc1cnc(OC)n2nc(NS(=O)(=O)c3c(OCC(F)F)cccc3C(F)(F)F)nc12", "tested on": "HaCaT", "assay": "cell growth or viability, CCK-8", "setting": "1.56 µM, 72 h", "endpoint": "inhibition", "result": "0.43%"}
{"SMILES": "Nc1ncnc2c([C@@H]3N[C@H](CO)[C@@H](O)[C@H]3O)c[nH]c12", "tested on": "Dengue virus", "assay": "viral replication", "test system": "Vero 76, DENV2", "setting": "296 µM", "endpoint": "inhibition", "result": "100%"}
{"SMILES": "C#Cc1ccc(O)c(C=NNC(=O)c2ccc(C3(C(F)(F)F)N=N3)cc2)c1", "tested on": "Cryptococcus neoformans", "assay": "microbial killing", "endpoint": "MFC", "result": "1 µg/mL"}
{"SMILES": "Cc1nn(C)cc1-c1nc2c(N3CCN(Cc4ccc(Cl)cc4)CC3)c(Cl)cnc2[nH]1", "tested on": "Hepatocyte growth factor receptor (MET, Homo sapiens, UniProt P08581, Y1235D)", "assay": "binding, competition with immobilised ligand", "setting": "1 µM", "endpoint": "remaining binding", "result": "76%"}
{"SMILES": "C#Cc1n[nH]c2c(-c3cn(C(C)c4ccccn4)c(=O)[nH]c3=O)cc(F)cc12 (stereo not shown)", "tested on": "Casein kinase II subunit alpha' (CSNK2A2, Homo sapiens, UniProt P19784)", "assay": "enzyme activity, inhibitor", "setting": "1 µM", "endpoint": "inhibition", "result": "5.4%"}
{"SMILES": "C#Cc1ccc(O)c(C=NNC(=O)c2ccc(Br)c(Br)c2)c1", "tested on": "Cryptococcus neoformans", "assay": "microbial growth, broth dilution", "setting": "pH 7.4", "endpoint": "MIC80", "result": "0.06 µg/mL"}
{"SMILES": "COC(=O)c1cc(-c2cccc(NC(=O)Nc3cccc(Br)c3)c2)on1", "tested on": "Klebsiella pneumoniae", "assay": "microbial growth, broth dilution", "test system": "BAA1705", "endpoint": "MIC", "result": "> 64 µg/mL"}
{"SMILES": "CC(=O)N1CCN(c2ccc(OCC3COC(Cn4ccnc4)(c4ccc(Cl)cc4Cl)O3)cc2)CC1 (stereo not shown)", "tested on": "Candida albicans", "assay": "microbial killing, broth dilution", "test system": "56452", "setting": "48 h", "endpoint": "MFC", "result": "> 64 µM"}
{"SMILES": "COC(=O)c1cc(-c2cccc(NC(=S)Nc3ccc(C)cc3)c2)on1", "tested on": "Mycolicibacterium fortuitum", "assay": "microbial growth, broth dilution", "test system": "ATCC6841", "setting": "48 h", "endpoint": "MIC", "result": "> 64 µg/mL"}
{"SMILES": "C#Cc1ccc(C(=O)NN=Cc2ccc(C#C)cc2O)cc1", "tested on": "Cryptococcus neoformans", "assay": "microbial growth, broth dilution", "setting": "pH 7.4", "endpoint": "MIC80", "result": "0.007 µg/mL"}
{"SMILES": "COC(=O)c1cc(-c2cccc(NC(=O)Nc3cc(Cl)ccc3Cl)c2)on1", "tested on": "Pseudomonas aeruginosa", "assay": "microbial growth, broth dilution", "test system": "ATCC27853", "endpoint": "MIC", "result": "> 64 µg/mL"}
{"SMILES": "O=C(CSc1nnc(O)n1Cc1ccccc1)Nc1ccccc1-c1ccccc1", "tested on": "Plasmodium falciparum", "assay": "parasite growth, SYBR Green", "test system": "3D7", "setting": "72 h", "endpoint": "EC50", "result": "1760 nM"}
{"SMILES": "COC(=O)c1cc(-c2cccc(NC(=O)Nc3cccc(C#N)c3)c2)on1", "tested on": "Pseudomonas aeruginosa", "assay": "microbial growth, broth dilution", "test system": "ATCC27853", "endpoint": "MIC", "result": "> 64 µg/mL"}
{"SMILES": "OC(Cn1cncn1)(Cn1cncn1)c1ccc(F)cc1F", "tested on": "Candida albicans", "assay": "microbial killing, broth dilution", "test system": "SP3902", "setting": "48 h", "endpoint": "MFC", "result": "> 64 µM"}
{"note": "Excerpt of the above:"}
{"SMILES": "Nc1ncc(-c2nc(N3CCOCC3)nc(N3CCOCC3)n2)c(C(F)F)n1", "tested on": "Non-receptor tyrosine-protein kinase TYK2, JH1 (TYK2, Homo sapiens, UniProt P29597)", "assay": "binding, competition with immobilised ligand", "setting": "10 µM", "endpoint": "remaining binding", "result": "56%"}
{"SMILES": "C#Cc1n[nH]c2c(-c3cn(C(C)c4ccccn4)c(=O)[nH]c3=O)cc(F)cc12 (stereo not shown)", "tested on": "Casein kinase II subunit alpha' (CSNK2A2, Homo sapiens, UniProt P19784)", "assay": "enzyme activity, inhibitor", "setting": "1 µM", "endpoint": "inhibition", "result": "5.4%"}
{"SMILES": "C#Cc1cccc(C=NNC(=O)c2ccc(Br)cc2)c1O", "tested on": "Cryptococcus neoformans", "assay": "microbial killing", "endpoint": "MFC", "result": "0.4 µg/mL"}
{"SMILES": "COC(=O)c1cc(-c2cccc(NC(=O)Nc3cccc(Cl)c3Cl)c2)on1", "tested on": "Klebsiella pneumoniae", "assay": "microbial growth, broth dilution", "test system": "BAA1705", "endpoint": "MIC", "result": "> 64 µg/mL"}
